Published values collected from several papers.
Numbers after ± are the reported error.
DNA gyrase subunit A with GyrB: DNA gyrase subunit A, with GyrB (Mycobacterium tuberculosis, UniProt P9WG47)

CC(C)[C@H]1NC(=O)C[C@H]2/C=C/CCSSC[C@@H](NC1=O)C(=O)N[C@H](Cc1cccc3ccccc13)C(=O)NCC(=O)O2
inhibition (Casein kinase I isoform alpha (CSNK1A1, Homo sapiens, UniProt P48729); enzyme activity, inhibitor; 10 µM): 15.4%

CCN(CC)C(=O)c1ccc(C(c2cccc(O)c2)N2CC(C)N(Cc3ccccc3)CC2C)cc1 (stereo not shown)
EC50 (Delta-type opioid receptor (OPRD1, Homo sapiens, UniProt P41143, V281A); agonist): 0.25 ± 0.15 nM

COc1ccc2nccc(CC[C@H]3OC[C@H](NC(=O)c4ccc(Cl)cc4)CO3)c2c1
EC50 (DNA gyrase subunit A with GyrB; single-stranded DNA cleavage; 10 min, 37 °C, together with: gyrase 100 nM): 17100 nM

CCCCCn1cc(C(=O)c2ccc3c(c2)CC(C)(C)C3)c2ccccc21
EC50 (Cannabinoid receptor 2 (CNR2, Homo sapiens, UniProt P34972, V261L); cAMP, agonist, BRET): 37.2 nM

COc1ccccc1C(C[N+](=O)[O-])c1c(-c2ccccc2)[nH]c2ccccc12 (stereo not shown)
EC50 (Cannabinoid receptor 1 (CNR1, Homo sapiens, UniProt P21554, Y397F); G protein activation, agonist, BRET): 270 nM

CCCCCn1cc(C(=O)c2cccc3c2CC(C)(C)C3)c2ccccc21
EC50 (Cannabinoid receptor 1 (CNR1, Homo sapiens, UniProt P21554, F177A); G protein activation, agonist, BRET): 7590 nM

COc1ccccc1-c1n[nH]c2nc(NC3CCN(C(=O)Cc4ccc(F)cc4F)CC3)ncc12
relative abundance (bead binding, competition bead pull-down, measured: LINJ.29.2220; Leishmania donovani extract; 10 µM; relative to: vehicle): 0.9

O=[N+]([O-])CC(c1ccco1)c1c(-c2ccccc2)[nH]c2ccccc12 (stereo not shown)
EC50 (Cannabinoid receptor 1 (CNR1, Homo sapiens, UniProt P21554); G protein activation, agonist, BRET): 390 nM

O=C1NC2(CC2)COc2ncc(F)cc2[C@H]2COCCN2c2ccn3ncc1c3n2
prothrombin time (Sprague-Dawley rat, female, plasma; oral, 5 mg/kg/day, end of recovery, 4-week repeated-dose toxicity): 8.2 s

COc1ccc2ncc(F)c(C[C@H](O)[C@H]3OC[C@H](NCc4ccc5c(n4)NC(=O)CO5)CO3)c2c1
EC50 (DNA gyrase subunit A with GyrB; single-stranded DNA cleavage; 10 min, 37 °C, together with: gyrase 100 nM): 13800 nM

CC[C@H](C)[C@H](NC(=O)[C@H](CO)NC(=O)[C@H](CC(N)=O)NC(=O)[C@H](CC(C)C)NC(=O)[C@H](Cc1ccc(O)cc1)NC(=O)[C@H](CCCCN)NC(=O)[C@H](CCCCN)NC(=O)[C@@H](NC(=O)[C@H](C)NC(=O)[C@H](CCSC)NC(=O)[C@H](CCC(N)=O)NC(=O)[C@H](CCCCN)NC(=O)[C@H](CCCN=C(N)N)NC(=O)[C@H](CC(C)C)NC(=O)[C@H](CCCN=C(N)N)NC(=O)[C@@H](NC(=O)[C@H](Cc1ccc(O)cc1)NC(=O)[C@H](CC(N)=O)NC(=O)[C@H](CC(=O)O)NC(=O)[C@@H](NC(=O)[C@H](Cc1ccccc1)NC(=O)[C@@H](NC(=O)[C@H](C)NC(=O)[C@H](CC(=O)O)NC(=O)[C@H](CO)NC(=O)[C@@H](N)Cc1c[nH]cn1)C(C)C)[C@@H](C)O)[C@@H](C)O)C(C)C)C(=O)N[C@@H](CC(C)C)C(=O)N[C@@H](CC(N)=O)C(N)=O
EC50 (Pituitary adenylate cyclase-activating polypeptide type I receptor (ADCYAP1R1, Homo sapiens, UniProt P41586, del89-109); receptor internalisation, agonist; COS-7; 37 °C, AUC over 30 min): 151 nM

CCCCCn1cc(C(=O)c2cccc3ccccc23)c2ccccc21
EC50 (Cannabinoid receptor 2 (CNR2, Homo sapiens, UniProt P34972, L182I); cAMP, agonist, BRET): 0.589 nM

CC(C)(C)C(=O)OCOP(=O)(OCOC(=O)C(C)(C)C)C1CCCN(O)C1=O (stereo not shown)
log GI50 (NCI-H322M): -6.17 log M

Repeated from above:
CC(C)(C)C(=O)OCOP(=O)(OCOC(=O)C(C)(C)C)C1CCCN(O)C1=O (stereo not shown)
log GI50 (NCI-H322M): -6.17 log M

O=C1NC2(CC2)COc2ncc(F)cc2[C@H]2COCCN2c2ccn3ncc1c3n2
prothrombin time (Sprague-Dawley rat, female, plasma; oral, 5 mg/kg/day, end of recovery, 4-week repeated-dose toxicity): 8.2 s
